# Assay results of several laboratories.
# A part holds a random share of what one study measured.

# Block 1
# Target: Histone acetyltransferase KAT6A, winged helix 2, GST fusion (KAT6A, Homo sapiens, UniProt Q92794, residues 85-181)
# Method: protein binding microarray
# Molecule type: double-stranded DNA, one strand shown
# Matrix: in vitro
# Tested at: not given
# Setting: 8-mer, flanks averaged, mean of 2 arrays, mostly near background
# Relative to: not given
# Reading: higher = stronger binding
# Construct (chain): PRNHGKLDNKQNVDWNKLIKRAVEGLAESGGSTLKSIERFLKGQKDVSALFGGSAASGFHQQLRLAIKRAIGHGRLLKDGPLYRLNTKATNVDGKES
Strand,E-score
ACTAAGAA,0.0156
AAGCACGA,0.152
ATTCTTCG,-0.00159
AGGCCAGA,0.116
TTCCTAAA,0.0447
GGCTGGAC,0.0215
CACTCGCA,-0.0125
AAAGGAAA,0.0462
CTGAAATA,0.0835
CCGGCCTA,0.178
ATTGTAAC,0.0297
TCAACTAA,0.035
AAAGTGAA,-0.078
CCTATTAG,-0.0225
CTCTCGAC,0.0866
CAGTATGC,-0.0182
AACTCTCC,0.0349
AGACCCCA,-0.109
CATGAGAC,-0.0284
TCTGGTAA,0.0713

# Block 2
# Target: RNA binding protein fox-1 homolog 2, RRM domain, GST-SBP tag (RBFOX2, Homo sapiens, UniProt O43251-10, residues 100-194)
# Method: RNA Bind-n-Seq
# Molecule type: RNA
# Matrix: in vitro
# Tested at: 365 nM
# Setting: natural RNA segment, single round, ends assumed
# Relative to: no-protein control
# Reading: higher = stronger binding
# Construct (chain): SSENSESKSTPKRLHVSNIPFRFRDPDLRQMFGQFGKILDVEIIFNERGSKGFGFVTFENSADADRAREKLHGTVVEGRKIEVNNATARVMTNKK
Strand,RBNS enrichment (R)
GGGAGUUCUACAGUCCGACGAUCAGCACACCUUCCCCGUCUGUCCCAGUAGGGGCUGGCGCUGGGGUUGGAGGCCGCUGGCCUGUGCUCUGGUGCAGAUGCUCUUACCCAGCUUCACUCAGGACCACCUUGGGUGGAAUUCUCGGGUGCCAA,0.214
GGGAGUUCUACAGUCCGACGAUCCUGUGGUUGCGCUCCUUUCCCCAGGAAAAAGAAAAGAAAAAGAAAUUCGCAUGUUUAAUGUGACUUCCCCUCCCCGUCUGUGUUCUAACUUAUUUAUAAAAGGAUGAUGGUGGAAUUCUCGGGUGCCAA,0.753
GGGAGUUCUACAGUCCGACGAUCUGGGGUCAGCUUUCACGGUCGCUUUUCCCUUCCUCACCACCCACCACAGCCCACCUUGCAUGCAUGGCCAGCCCCUCCACUCCAGCCUGAGCCAUGUGUGCCCCUGCGGGUGGAAUUCUCGGGUGCCAA,11.8
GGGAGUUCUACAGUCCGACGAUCUUUGCUUCCUAGCUGAUGUCAUCCCACAUUGGUACAGGUGUUAUUCAGUACUGGGUGGUUCAGCAGGGAAGCCGGGUGGGACCAGUGUGUCUGUCAUGAAACCACUAACUUGGAAUUCUCGGGUGCCAA,0.195
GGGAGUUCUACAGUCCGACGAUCCACAGACAUGGUGUCUGCAGUUUCCCAGCUGUCCGACUCCCCGGACACCACAGAGGAAGCCACCCCAGUUCAGGAGGUAGAGGGUGGCAUGCUAGAUACGGAAGAACAGGUGGAAUUCUCGGGUGCCAA,0.803
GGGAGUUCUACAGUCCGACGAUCGAGCCAACUCUGAUGGGAGGUGAGUUUGGGGACGAGGACGAAAGGCUAAUCACUAGAUUAGAAAACACGCAAUAUGAUGCGGCCAACGGCAUGGACGACGAGGAGGACUUUGGAAUUCUCGGGUGCCAA,0.406
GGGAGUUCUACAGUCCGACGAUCUUCACUGCCAGAGUGGGCAUCUUGCAUAGUAAGGGAUUCCAGAUUAGAUAUGAGUUGAGCACCCUGCCUUUCUUCCUAUCACCCCGCUUCUGCUGAUAGUCCGUGCUACAUGGAAUUCUCGGGUGCCAA,1.35
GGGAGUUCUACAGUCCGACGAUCCACGAUGCUGCUCUGGUGAUUCUUGUACCUAAUCUGGUGUGCUCACCAAUGAGUGAAAGGGAUCGUGGGUCAGGGACACCGAGAGAGUGAGGUCACUUCCACUUCAAACCUGGAAUUCUCGGGUGCCAA,0.224

# Block 3
# Target: RING finger protein unkempt homolog, zinc fingers 1-6, GST-SBP tag (UNK, Homo sapiens, UniProt Q9C0B0, residues 30-357)
# Chain of UniProt Q9C0B0 (30-357, looked up): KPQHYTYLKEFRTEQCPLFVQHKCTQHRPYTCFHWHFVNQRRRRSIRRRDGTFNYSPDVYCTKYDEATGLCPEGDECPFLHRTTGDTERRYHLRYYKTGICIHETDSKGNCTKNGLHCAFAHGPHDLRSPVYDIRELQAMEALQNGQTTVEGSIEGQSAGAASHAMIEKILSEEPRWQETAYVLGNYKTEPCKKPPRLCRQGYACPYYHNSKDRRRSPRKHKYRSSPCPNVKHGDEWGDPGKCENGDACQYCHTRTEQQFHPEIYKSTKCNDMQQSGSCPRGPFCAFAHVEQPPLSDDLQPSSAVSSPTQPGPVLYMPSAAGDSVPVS
# Method: RNA Bind-n-Seq
# Molecule type: RNA
# Matrix: in vitro
# Tested at: not given
# Setting: RNA with constant flanks, human and mouse sites, ends assumed
# Relative to: input RNA pool
# Reading: higher = stronger binding
Strand,bound/input enrichment
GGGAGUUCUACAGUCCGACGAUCGAAAUGCUGACAAGAUGUGGCAUUGGUAAGUUGCUACUCUUUGAUUAUGACAAGGUGGAACUAGCCAAUAUGAAUAGACUUUUCUUCCAACCUCAUCAAGCAGGAUUAAGUAAAGUUCAACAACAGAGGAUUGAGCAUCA,0.19 ratio
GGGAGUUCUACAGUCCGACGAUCUACUUCCAGUGUUCCUCAUCAUGUUUCCAGCAAGUCCCUUUUUCUACGUUGCAGUUUGUUUAAUGUAUGUUAAUUUCACCUGGCUUCAUUCAUUUUCCUUUUUAAAAUUUGUCUUUUAAACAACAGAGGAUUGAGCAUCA,0.304 ratio
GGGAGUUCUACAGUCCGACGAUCGACUACUUCACUUGCAUAACUAAAGCUUAUGAAAUGUUGUCUGAUCCAGUGAAAAGGCGGGCAUUUAACAGUGUAGAUCCUACUUUUGACAACUCAGUUCCUUCUAAAAGUGAAGCUAAGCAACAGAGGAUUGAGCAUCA,0.0634 ratio
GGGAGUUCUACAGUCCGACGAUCCGGACCCUGAUACCACGCUACUUCCGAAGCAUUUUUGAGGGGGGUGCCACAGAGCUGUACUACGUGCUCAAGCACCCCAAGGAGGCAUUCCACAGCAACUUCGUGUCCCUCGACUGUGACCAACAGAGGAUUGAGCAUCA,0.0965 ratio
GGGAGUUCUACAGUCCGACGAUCGAGGUUAGAGCUAGUGUGGUUUUGAGGUCUCACUACACUUUGAGGAAGGCAGCUUUUAAUUCAGUGUUUCCUUAUGUGUGCGUACAUUGCAACUGCUUACAUGUAAUUUAUGUAAUGCAUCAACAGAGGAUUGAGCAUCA,0.591 ratio
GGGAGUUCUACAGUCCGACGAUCACCAGCACAUUUUCUGAAUACACAGUUGUGGCUGAUAUCUCUGUUGCUAAAAUAGAUCCUUUAGCACCUUUGGAUAAAGUCUGCCUUCUAGGUUGUGGCAUUUCAACCGGUUAUGGUGCUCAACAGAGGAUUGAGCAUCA,1.01 ratio
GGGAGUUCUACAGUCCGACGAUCCAGCGUCUCUGGGUGGGCCGCUGGCUGGCAGGCCGGGCAGGGGGCCUGCAGCAGGACUGUGCUCUGCGAGUGGAUGCUAGCGCCAGCGCCCGAGACGCAGCCCUGGUCUACCAUAAGCUGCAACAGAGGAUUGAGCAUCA,0.347 ratio
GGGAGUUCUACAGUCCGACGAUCAAGUCAGCAGCUGAGGUGGAGGAAGCACCUUCCCCUGAAGACAAUGUCUAUUUCGGAACUACUAGUGACGAUUCGGAUAUUGUUACACUUGAACCACCUAAGCUGGAAGAAAUGGGGAACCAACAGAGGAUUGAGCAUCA,0.0941 ratio

# Block 4
# Target: Phosphate system positive regulatory protein PHO4, full length, GST-tagged (PHO4, Saccharomyces cerevisiae, UniProt P07270, residues 1-312)
# Method: competition protein-binding microarray
# Molecule type: double-stranded DNA, one strand shown
# Matrix: in vitro
# Tested at: 2 µM
# Setting: whole 60-bp probe, lowest competitor level
# Added: Cbf1 competitor, 0.05 µM
# Reading: higher = stronger binding
# Residues (chain): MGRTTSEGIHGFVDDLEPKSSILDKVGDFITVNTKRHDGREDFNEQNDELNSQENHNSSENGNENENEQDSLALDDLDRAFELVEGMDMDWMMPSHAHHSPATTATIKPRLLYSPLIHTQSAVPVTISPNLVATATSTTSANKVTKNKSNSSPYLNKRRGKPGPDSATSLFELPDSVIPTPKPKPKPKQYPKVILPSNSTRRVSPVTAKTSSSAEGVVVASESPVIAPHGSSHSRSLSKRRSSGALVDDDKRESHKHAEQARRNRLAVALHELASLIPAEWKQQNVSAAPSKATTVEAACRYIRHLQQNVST
Strand,fluorescence intensity
CGGGGTTAAGTTTGTCACCACACTTGCTTGCAGCAGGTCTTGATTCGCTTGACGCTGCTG,4290 a.u.
CCAAAAAGCCTCCGTCACGTGGTCGCTTGCGCTTATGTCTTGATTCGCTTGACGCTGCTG,17300 a.u.
ACTAATGCAGGCAGAAGGAGATCCATACCTTCAAATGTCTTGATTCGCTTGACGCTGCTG,3740 a.u.
CCGTTCACCACTTTGCATGTGCTCTCAAGTACGGCCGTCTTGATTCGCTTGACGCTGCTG,10700 a.u.
GTCTTGTCTCATTGTCACGCAACTTTCCCCACTTCAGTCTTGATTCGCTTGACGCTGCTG,5360 a.u.
GCACCTCATCTAGCGGAGGTGCAGGGATGTACCAACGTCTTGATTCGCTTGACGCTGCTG,3130 a.u.
CTTCTGTAAATTTGTCACTTAACTTGACGCGCCCCGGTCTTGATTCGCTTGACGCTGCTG,2920 a.u.
CTAACGAAGGTTTGATGTGTGGGTGACAAGCCAAGTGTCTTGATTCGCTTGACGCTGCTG,5460 a.u.
TCAATATAATTCTGTCATGCTTGGCCTTACTGCTTAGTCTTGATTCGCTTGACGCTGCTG,4750 a.u.
ACTCCCGGTTATCTAGACGTGTTGATCTTGGACACTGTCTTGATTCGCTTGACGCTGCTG,4770 a.u.
TGCGCAACAACTTGTTATGTGGGTGTATGTCTAGAAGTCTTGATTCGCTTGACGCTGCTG,4810 a.u.
ATGATGGGAAACCATCACGTACGGTTTGGGAAAGGCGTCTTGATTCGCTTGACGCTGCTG,5110 a.u.
CACGTAGAAGCTATCTTGATCAAGACTCTTTCTTTAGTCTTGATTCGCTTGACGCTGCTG,3470 a.u.
CGGGGTTAAGTTTGTGGAGTGGGTGGCTTGCAGCAGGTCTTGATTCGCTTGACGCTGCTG,4400 a.u.
AAAGCGGTAATTTTTCACGTGTAATCAAATATCTATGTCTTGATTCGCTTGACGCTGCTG,12200 a.u.
GTCTTGTCTCATTGTCACTCGACTTTCCCCACTTCAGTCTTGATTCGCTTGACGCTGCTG,4340 a.u.
CGTCCTAGTGATTGTCACTGTACTTCCATGAGGAAGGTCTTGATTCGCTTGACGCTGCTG,4450 a.u.
ATCCTCATGTTCTTCCACGTGAAGATCGCCCGCTTCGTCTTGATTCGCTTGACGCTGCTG,13100 a.u.
CAACTACGCTGGATCGACGTGGGACTGGCAGGGAAGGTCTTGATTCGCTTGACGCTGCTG,4710 a.u.

# Some of these lines once more (block 1):
Strand,E-score
TTCCTAAA,0.0447
CCGGCCTA,0.178
AAAGTGAA,-0.078
CCTATTAG,-0.0225
